Earlier results as cited in several papers.
Each numbered part shows a few of the values that one paper quotes.

Block 1
Organism: Plasmodium falciparum
Read-out: parasite growth
Concentration: concentration not given
For CC(C)NCC(O)COc1ccc(CCOCC2CC2)cc1 (stereo not shown), antiparasitic activity read “active”.
NCCc1ccc(O)c(O)c1 — result for antiparasitic activity: “active”.
For Cc1cccc(C)c1OCC(C)N (stereo not shown), antiparasitic activity read “active”.
Brc1c(NC2=NCCN2)ccc2nccnc12 — result for antiparasitic activity: “active”.
Under antiparasitic activity, CN/C(=N/CCSCc1nc[nH]c1C)NC#N is recorded as “active”.
Nc1nc2ccc(Cl)cc2c2nc(-c3ccco3)nn12 — result for antiparasitic activity: “active”.
Under antiparasitic activity, OC(CCN1CCCCC1)(c1ccccc1)C1CCCCC1 (stereo not shown) is recorded as “active”.
Under antiparasitic activity, CNCCC=C1c2ccccc2CCc2ccccc21 is recorded as “active”.
Nc1c2c(nc3ccccc13)CCCC2: antiparasitic activity “active”.
COc1cc(Cc2cnc(N)nc2N)cc(OC)c1OC — result for antiparasitic activity: “active”.
For CNCCCC12CCC(c3ccccc31)c1ccccc12, antiparasitic activity read “active”.
For Cn1cnc([N+](=O)[O-])c1Sc1ncnc2nc[nH]c12, antiparasitic activity read “active”.

Block 2
Target: dopamine transporter
With O=C1CCc2cc(OCCCCc3nnnn3C3CCCCC3)ccc2N1 the IC50 was over 10000 nM.
The IC50 of CC[C@H]1OC(=O)[C@H](C)[C@@H](O[C@H]2C[C@@](C)(OC)[C@@H](O)[C@H](C)O2)[C@H](C)[C@@H](O[C@@H]2O[C@H](C)C[C@H](N(C)C)[C@H]2O)[C@](C)(O)C[C@@H](C)CN(C)[C@H](C)[C@@H](O)[C@]1(C)O is reported as over 10000 nM.
Cc1[nH]cnc1CN1CCc2c(c3ccccc3n2C)C1=O gave an IC50 of over 10000 nM.
For CN(C)CC(c1ccc(O)cc1)C1(O)CCCCC1 (stereo not shown), the IC50 was 854 nM.
The IC50 of CCN(CC)CCNC(=O)c1cc(Cl)c(N)cc1OC is reported as over 10000 nM.

Block 3
SMILES: CN(C)CC/C=C1/c2ccccc2Sc2ccc(Cl)cc21
Cell line: MCF7
Technique: microarray
Concentration: concentration not given
Baseline: DMSO
refers to: ZNF292 mRNA — “log2 fold change”: 1.32.
It gave 2.18 for “log2 fold change” (refers to: TES mRNA).
The “log2 fold change” was 1.93 (refers to: SQLE mRNA).
For refers to: ZNHIT2 mRNA: “log2 fold change” read 1.

Other studies, line by line
With COc1ccc2c(O[C@@H]3C[C@H]4C(=O)N[C@]5(C(=O)O)CC5/C=C\CCCCC[C@H](NC(=O)OC5CCCC5)C(=O)N4C3)cc(-c3csc(NC(=O)C(C)C)n3)nc2c1C (stereo partly shown) the EC50 was 4.6 nM (HCV NS3; viral replication, cell-based; hepatitis C virus, genotype 1a).
CC(=O)Nc1c(C(C)=O)c(=O)n(C)c2nc(-c3ccc(Cl)cc3Cl)c(-c3ccc(Cl)cc3)cc12 gave an IC50 of 8610 nM (MAPK3; off-target panel).
With COc1ccc2cc(OCC3(C(=O)O)CN(C(=O)c4ccc(F)cc4)C3)ccc2c1 the IC50 was 530 nM (NQO2).
With c1ccc2oc(-c3csc(C4CCN(Cc5nc6ncccc6[nH]5)CC4)n3)cc2c1 the IC50 was 33 nM (mitochondrial complex I; cell-based).

For quick reference, copied from above (block 3):
For refers to: ZNHIT2 mRNA: “log2 fold change” read 1.
It gave 2.18 for “log2 fold change” (refers to: TES mRNA).
